# Measured values gathered from unrelated publications.
# Protocols differ between the studies behind these lines. Numbers after ± are the reported error.
# ampC: Beta-lactamase (ampC, Escherichia coli K-12, UniProt P00811)
# Mannan-binding lectin serine protease 2: Mannan-binding lectin serine protease 2 (Homo sapiens, UniProt O00187)
# NPY1R: Neuropeptide Y receptor type 1 (NPY1R, Homo sapiens, UniProt P25929)
# Oprk1: Kappa-type opioid receptor (Oprk1, Rattus norvegicus, UniProt P34975)
# MC1R: Melanocyte-stimulating hormone receptor (MC1R, Homo sapiens, UniProt Q01726)
# Sigmar1: Sigma non-opioid intracellular receptor 1 (Sigmar1, Rattus norvegicus, UniProt Q9R0C9)
SMILES,target,test,test system,conditions,Ki [µM]
CC1(C)SC(C(CCc2ccccc2)B(O)O)N[C@H]1C(=O)O (some centres unmarked),ampC,"enzyme activity, inhibitor",,"pH 7.50, 25 °C, with: cephalothin 0.2 mM substrate",0.38 ± 0.12
CNC(C)C(=O)NC1COC2CCC(C(=O)NCc3ccccc3)N2C1=O (mixture of isomers),"Baculoviral IAP repeat-containing protein 3, BIR3 (BIRC3, Homo sapiens, UniProt Q13489)","ligand displacement, FP",,,28.9
O=C(O)C1(n2cnnn2)CCCCC1,ampC,,,,< 10000
CC[C@H](C)[C@H](NC(=O)[C@@H]1CSSC[C@H](NC(=O)[C@H](Cc2ccc(O)cc2)NC(=O)CN)C(=O)N[C@@H](CO)C(=O)N[C@@H](CCCNC(=N)N)C(=O)N[C@@H](CO)C(=O)N[C@@H](Cc2ccc(O)cc2)C(=O)N2CCC[C@H]2C(=O)N2CCC[C@H]2C(=O)N[C@@H](C(C)C)C(=O)N1)C(=O)N1CCC[C@H]1C(=O)N[C@@H](CC(=O)O)C(N)=O,Mannan-binding lectin serine protease 2,"enzyme activity, inhibitor",,,0.12
CC(=O)N[C@@H](CCCNC(=N)N)C(=O)N[C@@H](Cc1ccc(O)cc1)C(=O)N[C@@H](CCCNC(=N)NC(=O)NCCCCN)C(=O)N[C@H](CC(C)C)C(=O)N[C@@H](CCCNC(=N)N)C(=O)N[C@@H](Cc1ccc(O)cc1)C(N)=O,NPY1R,"ligand displacement, radioligand",,,> 5
CNC(=O)C1CCN(c2ccccc2NC(=O)c2ccc(-c3cc(O)ccc3C)c(C)n2)CC1,"EPHB3 (Homo sapiens, UniProt P54753)","cell-free assay, TR-FRET",,,0.0049
COC(=O)N(C)[C@@H](Cc1ccccc1)C(=O)N[C@@H](Cc1ccccc1)C(=O)N[C@@H](Cc1ccccc1)C(=O)N[C@@H](CCCNC(=N)N)C(=O)N[C@@H](CC(C)C)C(=O)N[C@@H](CCCNC(=N)N)C(=O)N[C@@H](CCCNC(=N)N)C(=O)N[C@H](C)C(=O)N[C@@H](CCCNC(=N)N)C(=O)N1CCC[C@H]1C(=O)N[C@@H](CCCCN)C(N)=O,Oprk1,"ligand displacement, radioligand",,,0.00493
CC[C@H](C)[C@H](NC(=O)CN)C(=O)N[C@H](C(=O)N[C@@H](CC(N)=O)C(=O)N[C@H](C(=O)N[C@@H](CC(C)C)C(=O)N[C@@H](CCC(N)=O)C(=O)N[C@@H](CCCCN)C(=O)N[C@@H](Cc1ccc(O)cc1)C(=O)N[C@@H](Cc1ccc(O)cc1)C(=O)N[C@H]1CSSC[C@@H]2NC(=O)[C@H](CCCCN)NC(=O)[C@H](CCCNC(=N)N)NC(=O)CNC(=O)[C@H](CCCNC(=N)N)NC(=O)[C@H]([C@@H](C)O)NC(=O)[C@H](CO)NC(=O)[C@@H]3CSSC[C@H](NC(=O)[C@H](CCCNC(=N)N)NC(=O)CNC(=O)CNC(=O)[C@H](CCCNC(=N)N)NC(=O)[C@H](C(C)C)NC(=O)[C@H](CCCNC(=N)N)NC1=O)C(=O)N[C@@H](C)C(=O)N[C@@H](C(C)C)C(=O)N[C@@H](CC(C)C)C(=O)N[C@@H](CO)C(=O)N[C@@H](CSSC[C@@H](C(=O)N[C@@H](CCCNC(=N)N)C(=O)N[C@@H](CCCNC(=N)N)C(=O)N[C@@H](CCCCN)C(=O)N[C@@H](CCCCN)C(N)=O)NC2=O)C(=O)N[C@@H](CC(C)C)C(=O)N1CCC[C@H]1C(=O)N[C@@H](CCCCN)C(=O)N[C@@H](CCC(=O)O)C(=O)N[C@@H](CCC(=O)O)C(=O)N[C@@H](CCC(N)=O)C(=O)N[C@@H]([C@@H](C)CC)C(=O)NCC(=O)N[C@@H](CCCCN)C(=O)N3)[C@@H](C)O)[C@@H](C)CC,MC1R,ligand displacement in cells,,,0.042
CC[C@H](C)[C@H](NC(=O)[C@@H]1CSCC(=O)NCCCC[C@H](NC(=O)[C@H](Cc2ccc(O)cc2)NC(=O)CNC(C)=O)C(=O)N[C@@H](CO)C(=O)N[C@@H](CCCNC(=N)N)C(=O)N[C@@H](CO)C(=O)N[C@@H](Cc2ccc(O)cc2)C(=O)N2CCC[C@H]2C(=O)N2CCC[C@H]2C(=O)N[C@@H](C(C)C)C(=O)N1)C(=O)N1CCC[C@H]1C(=O)N[C@@H](CC(=O)O)C(N)=O,Mannan-binding lectin serine protease 2,"enzyme activity, inhibitor",,,41
N=C(N)NC(=O)c1ccc(C(=O)NCCCC[C@H](NC(=O)CNC(=O)CCC(=O)NN=Cc2cc(C=NNC(=O)CCC(=O)NCC(=O)N[C@@H](CCCCNC(=O)c3ccc(C(=O)NC(=N)N)[nH]3)C(=O)N[C@@H](Cc3c[nH]c4ccccc34)C(=O)N[C@@H](CCCCN)C(N)=O)cc(C=NNC(=O)CCC(=O)NCC(=O)N[C@@H](CCCCNC(=O)c3ccc(C(=O)NC(=N)N)[nH]3)C(=O)N[C@@H](Cc3c[nH]c4ccccc34)C(=O)N[C@@H](CCCCN)C(N)=O)c2)C(=O)N[C@@H](Cc2c[nH]c3ccccc23)C(=O)N[C@@H](CCCCN)C(N)=O)[nH]1,"Tryptase beta-2 (TPSB2, Homo sapiens, UniProt P20231)","enzyme activity, high-affinity mode, inhibitor",,,0.114
O=C(O)Cc1cccc(NS(=O)(=O)c2cccc(Cl)c2O)c1,ampC,"enzyme activity, inhibitor",,"pH 6.5, 0.01% Triton X-100, 1% DMSO, with: CENTA or nitrocefin substrate",1.3
CCCC(=O)c1ccc2c(c1)sc(=O)n2CCCCCN1CCCCCC1,Sigmar1,"binding, radioligand binding",rat liver membranes,with: [3H](+)-pentazocine 5 nM,0.0163 ± 0.0006
COc1cncc(B(O)O)c1,ampC,"enzyme activity, inhibitor",,with: CENTA,3.55
"CC1(CCN2CCc3ccccc3C2)Cc2cc(Cl)ccc2C1=O (single isomer, unassigned)","HTR7 (Homo sapiens, UniProt P34969)","binding, radioligand binding",,,0.0807
CC[C@H](C)[C@H](NC(=O)CN)C(=O)N[C@H](C(=O)N[C@@H](CC(N)=O)C(=O)N[C@H](C(=O)N[C@@H](CC(C)C)C(=O)N[C@@H](CCC(N)=O)C(=O)N[C@@H](CCCCN)C(=O)N[C@@H](Cc1ccc(O)cc1)C(=O)N[C@@H](Cc1ccc(O)cc1)C(=O)N[C@H]1CSSC[C@@H]2NC(=O)[C@H](CCCCN)NC(=O)[C@H](C)NC(=O)CNC(=O)[C@H](CCCNC(=N)N)NC(=O)[C@H]([C@@H](C)O)NC(=O)[C@H](CO)NC(=O)[C@@H]3CSSC[C@H](NC(=O)[C@H](CCCNC(=N)N)NC(=O)CNC(=O)CNC(=O)[C@H](CCCNC(=N)N)NC(=O)[C@H](C(C)C)NC(=O)[C@H](CCCNC(=N)N)NC1=O)C(=O)N[C@@H](C)C(=O)N[C@@H](C(C)C)C(=O)N[C@@H](CC(C)C)C(=O)N[C@@H](CO)C(=O)N[C@@H](CSSC[C@@H](C(=O)N[C@@H](CCCNC(=N)N)C(=O)N[C@@H](CCCNC(=N)N)C(=O)N[C@@H](CCCCN)C(=O)N[C@@H](CCCCN)C(N)=O)NC2=O)C(=O)N[C@@H](CC(C)C)C(=O)N1CCC[C@H]1C(=O)N[C@@H](CCCCN)C(=O)N[C@@H](CCC(=O)O)C(=O)N[C@@H](CCC(=O)O)C(=O)N[C@@H](CCC(N)=O)C(=O)N[C@@H]([C@@H](C)CC)C(=O)NCC(=O)N[C@@H](CCCCN)C(=O)N3)[C@@H](C)O)[C@@H](C)CC,MC1R,ligand displacement in cells,,,0.038
COC(=O)C1=C(C)NC(C)=C(C(=O)OC)C1c1cccc(NC(=O)NCCCN2CCC(c3cccc(OC)c3)CC2)c1,NPY1R,"ligand displacement, radioligand",,cell membranes,0.022
Cc1cc(O)cc(C)c1CC(N)C(=O)NC1CCNc2c(C)cc(Cc3ccccc3)cc21 (centres unmarked),"OPRK1 (Homo sapiens, UniProt P41145)","ligand displacement, radioligand",,cell membranes,0.017
OC(COCc1ccccc1Cl)CN1CC=C(c2c[nH]c3ccccc23)CC1 (racemic),"SLC6A2 (Homo sapiens, UniProt P23975)","ligand displacement, radioligand",,,> 10
O=c1sc2ccccc2n1CCCN1CCCCCC1,Sigmar1,"binding, radioligand binding",rat liver membranes,with: [3H](+)-pentazocine 5 nM,0.0041 ± 0.0003
CC(C)C[C@H](NC(=O)[C@H](CCCNC(=N)N)NC(=O)[C@H](Cc1c[nH]c2ccccc12)NC(=O)[C@H](Cc1ccccc1)NC(=O)[C@H](Cc1ccccc1)N(C)C(=O)COc1ccccc1)C(=O)N[C@@H](CCCNC(=N)N)C(=O)N[C@@H](CCCNC(=N)N)C(=O)N[C@H](C)C(=O)N[C@@H](CCCNC(=N)N)C(=O)N1CCC[C@H]1C(=O)N[C@@H](CCCCN)C(N)=O,Oprk1,"ligand displacement, radioligand",,,0.0133

# Repeated from above:
SMILES,target,test,test system,conditions,Ki [µM]
O=C(O)Cc1cccc(NS(=O)(=O)c2cccc(Cl)c2O)c1,ampC,"enzyme activity, inhibitor",,"pH 6.5, 0.01% Triton X-100, 1% DMSO, with: CENTA or nitrocefin substrate",1.3
CCCC(=O)c1ccc2c(c1)sc(=O)n2CCCCCN1CCCCCC1,Sigmar1,"binding, radioligand binding",rat liver membranes,with: [3H](+)-pentazocine 5 nM,0.0163 ± 0.0006
COc1cncc(B(O)O)c1,ampC,"enzyme activity, inhibitor",,with: CENTA,3.55
